Results collected from several papers.
Lines come from different studies, so protocols differ. ± gives the spread as reported.
Chain of UniProt P33261 (whole entry, looked up): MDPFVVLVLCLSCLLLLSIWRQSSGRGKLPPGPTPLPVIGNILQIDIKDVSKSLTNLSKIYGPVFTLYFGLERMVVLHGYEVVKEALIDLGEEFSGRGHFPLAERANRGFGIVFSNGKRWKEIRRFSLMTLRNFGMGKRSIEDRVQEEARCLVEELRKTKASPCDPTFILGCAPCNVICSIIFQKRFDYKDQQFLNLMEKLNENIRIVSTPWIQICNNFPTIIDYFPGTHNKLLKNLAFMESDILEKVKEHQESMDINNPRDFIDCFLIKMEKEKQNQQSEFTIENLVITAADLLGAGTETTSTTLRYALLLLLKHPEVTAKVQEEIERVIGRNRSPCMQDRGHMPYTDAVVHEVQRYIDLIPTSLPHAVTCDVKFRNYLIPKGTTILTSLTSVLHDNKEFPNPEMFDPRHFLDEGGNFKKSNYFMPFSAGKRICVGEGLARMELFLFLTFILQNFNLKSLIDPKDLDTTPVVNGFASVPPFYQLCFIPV

`[Cl][Au].[Se]=c1n(C23CC4CC(CC(C4)C2)C3)ccn1C12CC3CC(CC(C3)C1)C2` gave an IC50 of 0.3 ± 0.1 µM (A2780 ADR; MTT; 72 h).
`CC(C)c1cccc(C(C)C)c1-n1c2c([n+](-c3c(C(C)C)cccc3C(C)C)[c]1[Au-][Cl])-c1cccc3cccc-2c13` gave an IC50 of 15 µM (PSN1; cell growth or viability, MTT; 72 h).
The IC50 of `CC1OC(OCC2OC(Oc3cc(O)c4c(=O)cc(-c5ccc(O)c(O)c5)oc4c3)C(O)C(O)C2O)C(O)C(O)C1O` (stereo not drawn) is reported as > 100 µM (MDA-MB-231-pcDNA breast cancer; cytotoxicity, resazurin reduction; 72 h).
With `COc1cccc(-c2ccc(Nc3ccc(CN(C)C)cc3)c(OC)c2F)c1` the IC50 was > 1000 µM (A-375; HTRF, item: total Akt).
The IC50 of `CC(C)C[C@H](NC(=O)[C@H](CO)NC(=O)[C@H](Cc1c[nH]cn1)NC(=O)CCc1cn(CC(=O)OCC(=O)[C@@]2(O)[C@H](C)C[C@H]3[C@@H]4CCC5=CC(=O)C=C[C@]5(C)[C@@]4(F)[C@@H](O)C[C@@]32C)nn1)C(=O)NCC(=O)N[C@@H](CCCCN)C(=O)N[C@@H](Cc1c[nH]c2ccccc12)C(=O)N[C@@H](CC(C)C)C(=O)NCC(=O)N[C@@H](Cc1c[nH]cn1)C(=O)N1CCC[C@H]1C(=O)N[C@@H](CC(=O)O)C(=O)N[C@@H](CCCCN)C(=O)N[C@@H](Cc1ccccc1)C(=O)O` is reported as 0.00755 ± 0.0028 µM (EAE splenocytes at disease peak; cellular metabolism; 120 h; reference: untreated EAE splenocytes).
With `COC1CCC(Nc2nc(-c3nccn3C)nc3sc(-c4ccn(C)n4)c(-c4ccccc4)c23)C1` (stereo not drawn) the IC50 was ~10 µM (NCI-H1975 (KRAS wild type); Western blot, item: phospho-Akt; 6 h, with: EGF 15 min).
The IC50 of `CN(C)c1ccc(/C=C2\Oc3cc(O)ccc3C2=O)cc1` is reported as 14.1 µM (PC-9; cell growth or viability, MTT; 72 h).
`COC(=O)[C@H]1[C@H]2C[C@H]3O[C@@]4(CCN3C[C@H]2C[C@@H](OC(=O)c2cc(OC)c(OC)c(OC)c2)[C@@H]1OC)C(=O)Nc1cc(OC)c(-c2ccc(C(C)(C)C)cc2)cc14` gave an IC50 of 15.9 µM (SU-DHL-4; cell growth or viability, trypan blue; 72 h).
With `CN1CCN(c2ccc(-c3ccc4[nH]c5ncc(/C=C/c6ccccc6)cc5c4c3)cc2)CC1` the IC50 was 0.84 µM (parental Ba/F3 (IL-3 dependent); cell proliferation, [3H]-thymidine incorporation).
For `Cc1n[nH]c(C)c1-c1nc2ccc3[nH]ncc3c2c2c1CCCC2`, the IC50 was 0.159 µM (MV4-11; cell growth or viability, resazurin; 72 h).
With `S=C(S)NCc1cccnc1` the IC50 was 2 µM (KG-1a; cell growth or viability, MTT; 72 h).
`C=C(C)C(O)COc1c2occc2cc2ccc(=O)oc12` (stereo not drawn) has an IC50 of > 100 µM (L5178Y; cell growth or viability, MTT; 24 h).
The IC50 of `CNC(=O)C1CCN(c2ccccc2NC(=O)c2ccc(-c3cc(O)ccc3C)c(C)n2)CC1` is reported as 5.08 µM (A673; cell growth or viability, ATP luminescence; 72 h).
`CC(C)c1cccc(C(C)C)c1-n1c(Cl)c(Cl)n(-c2c(C(C)C)cccc2C(C)C)c1=[Se].[Cl][Au]` gave an IC50 of 4.5 ± 0.9 µM (LoVo-OXP (oxaliplatin-resistant); MTT; 72 h).
For `CCCC(CCC)C(=O)[O][Pt]([NH2])([NH2])([Cl])([Cl])[O]C(=O)C(C)c1ccc(CC(C)C)cc1` (stereo not drawn), the IC50 was 0.07 µM (PSN1; cell growth or viability, MTT; 72 h).
The IC50 of `Cc1c(C)n(-c2c(C(C)C)cccc2C(C)C)c(=[Se])n1-c1c(C(C)C)cccc1C(C)C.[Cl][Ag]` is reported as 0.6 ± 0.2 µM (LoVo-OXP (oxaliplatin-resistant); MTT; 72 h).
For `COc1cc(C(=O)c2[nH]c(N)nc2-c2cccs2)cc(OC)c1OC`, the IC50 was 2.43 µM (EMT6/AR1; cell growth or viability, SRB).
For `CC(C)c1ccc(C[C@H](C)C(=O)N[C@@H]2O[C@H](CO)[C@@H](O)[C@H](O)[C@H]2O)cc1`, the IC50 was > 250 µM (L1210; cell growth or viability; 48 h).
For `Nc1ccn([C@@H]2O[C@H](CSSc3ccccn3)[C@@H](O)[C@H](F)[C@H]2O)c(=O)n1`, the IC50 was > 500 µM (L1210; cell growth or viability).
The IC50 of `O=C(Nc1ccccc1)c1ccccc1-n1c(=O)[nH]c2ccc(F)cc2c1=O` is reported as 83.2 ± 1.32 µM (CHO-K1; cell viability, MTT; 24 h).
`[NH2][Pt]1([NH2])([Cl])([O]C(=O)C(Cl)Cl)[O]C(=O)C2(CC(=O)C2)C(=O)[O]1` gave an IC50 of 92.5 ± 2.56 µM (SGC-7901/CDDP cisplatin-resistant; cell viability, MTT; 48 h).
`FC(F)(F)c1n[nH]cc1-c1nc2ccc3[nH]ncc3c2c2c1CCCCC2` gave an IC50 of 0.0091 µM (MV4-11; cell growth or viability, resazurin; 72 h).
With `COc1cc(-c2nc3ccc(C(=O)NCCCN4CCN(c5ccccn5)CC4)cc3n2C2CCC2)cc(OC)c1OC` the IC50 was 0.97 µM (293 T-BRE-Luc; reporter gene, inhibitor; 6 h, with: BMP6-induced BMP6 500 ng/mL).
With `COc1cc(CNC(=O)C[C@H](C)CCC=C(C)C)ccc1OCc1cn(-c2cccc([N+](=O)[O-])c2)nn1` the growth percent was 66.5% (NCI-H23; SRB; 10 µM, 48 h).
For `CC(=O)OC[C@H]1O[C@@H](NC(=O)/C=C/c2ccc(-c3ccccc3)cc2)[C@H](OC(C)=O)[C@@H](OC(C)=O)[C@@H]1OC(C)=O`, the IC50 was ≥ 250 µM (L1210; cell growth or viability; 48 h).
With `[64Cu+2].c1ccc(CNCc2ccc(CN3CCCN4CCNCCCN(CC4)CC3)cc2)nc1` the tissue uptake was 2.54 ± 0.47 %ID/g (CXCR4 (human); NOD/SCID mice, U87 xenografts, U87 control tumour; 60 min post-injection).
With `Cc1cc(C)c([N+]#[C][Pd-]([Cl])([Cl])=[C](Nc2cccc(CN[C](Nc3c(C(C)C)cccc3C(C)C)=[Au][Cl])c2)Nc2c(C)cc(C)cc2C)c(C)c1` the IC50 was 26 µM (OVCAR-3; cell growth or viability).
The IC50 of `CC(C)c1cccc(C(C)C)c1-n1ccn(-c2c(C(C)C)cccc2C(C)C)c1=[Se].[Cl][Ag]` is reported as 7 µM (PSN1; cell growth or viability, MTT; 72 h).
`[64Cu+2].c1cnc(CNCc2ccc(CN3CCCN4CCNCCCN(CC4)CC3)cc2)nc1` gave a tissue uptake of 6.49 ± 1.12 %ID/g (CXCR4 (human); NOD/SCID mice, U87 xenografts, small intestine; 90 min post-injection).
For `COc1cc(CNC(=O)C[C@H](C)CCC=C(C)C)ccc1OCc1cn(-c2ccc(Br)cc2)nn1`, the growth percent was 55.6% (SK-MEL-5 melanoma cells; SRB; 10 µM, 48 h).
For `COc1ccc(-n2c(-c3cccc(OC)c3O)nc(-c3ccccc3)c2-c2ccccc2)cc1OC`, the IC50 was > 1000 µg/mL (human foreskin fibroblasts HFF; cell viability, colorimetric; 72 h).
For `C/C1=C\CC[C@@]2(C)O[C@H]2[C@H]2OC(=O)[C@@H](CSC(=S)N(C)c3cccnc3)[C@@H]2CC1`, the IC50 was 9.3 µM (KG-1a; cell growth or viability, MTT; 72 h).
The IC50 of `CC(C)c1cccc(C(C)C)c1N1CCN(c2c(C(C)C)cccc2C(C)C)C1=[Se].[Cl][Au]` is reported as 0.3 ± 0.04 µM (A2780 ADR; MTT; 72 h).
The IC50 of `Cc1cc(C)c([N+]#[C][Pt-2]([Cl])([Cl])[C]#[N+]c2c(C)cc(C)cc2C)c(C)c1` is reported as 60 µM (OVCAR-3; cell growth or viability).
With `N#Cc1c(-c2ccc(Cl)cc2)cc(-c2cccc3ccccc23)n2c(Cc3ccccc3)nnc12` the IC50 was 0.698 µM (RKOp27; cell growth or viability, MTT; 72 h).
`Cc1cc(C)c([N+]#[C][Pt-]([Cl])([Cl])=[C](Nc2ccc(CN[C](Nc3c(C(C)C)cccc3C(C)C)=[Au][Cl])cc2)Nc2c(C)cc(C)cc2C)c(C)c1` has an IC50 of > 100 µM (OVCAR-3; cell growth or viability).
`C=CC(=O)Nc1cc(Nc2nccc(-c3cn(C)c4ccccc34)n2)c(OCC(F)(F)F)nc1N(C)CCN(C)C` — result for “activity vs control”: 93.1% (CYP2C19 (Homo sapiens, UniProt P33261); enzyme activity, inhibitor; human, liver microsomes; 33.3 µM).
The IC50 of `CC(=O)[O][Ag]=[c]1n(C)ccn1CC(O)c1ccccc1` (stereo not drawn) is reported as > 200 µM (MCF-10A normal mammary epithelial; cytotoxicity, MTT; 72 h).
`C=C1C(=O)OC2CC3=C[C@@H](C/C(C)=C/C(OC(=O)Cc4cccc5ccccc45)[C@H]12)OC3=O` (stereo partly drawn) gave an IC50 of 0.65 µM (KATO III; cell growth or viability, MTT; 24 h).
`COc1ccc(-c2cnc3[nH]c4ccc(/C=C/c5ccccc5)cc4c3c2)cc1` gave an IC50 of 7 µM (parental Ba/F3 (IL-3 dependent); cell proliferation, [3H]-thymidine incorporation).
With `Cl.[Cl][Ru-]1[S+]=C(N2CCCC2)N[N+]1=Cc1ccc(N(c2ccccc2)c2ccccc2)cc1.c1ccccc1` the IC50 was 5.3 ± 3.8 µM (HeLa S3; cytotoxicity, MTT; 24 h).
With `CCCCCCCCc1cc(CN(Cc2ccccn2)Cc2ccccn2)c(O)c(CN(Cc2ccccn2)Cc2ccccn2)c1` the IC50 was 17 ± 2 µM (CHO-K1; cytotoxicity; 72 h).
Under “quenching rate constant”, `COC(=O)c1cnc(-c2cnccn2)cc1C(=O)OC.COC(=O)c1cnc(-c2cnccn2)cc1C(=O)OC.F[P-](F)(F)(F)(F)F.[Ag+]` is recorded as 1.5e+11 M⁻¹ s⁻¹ (calf thymus DNA; ethidium bromide displacement).
With `CO[C@H]1N(OC)c2ccccc2[C@@]12CN=C(Nc1cc(C(F)(F)F)cc(C(F)(F)F)c1)S2` (relative stereo) the IC50 was 32.2 µM (HCT-116; cell growth or viability, MTS; 72 h).
For `CCC(C(=O)O)C1CCC(C)C(C(C)C(O)C(C)C(=O)C(CC)C2OC3(C=CC(NCc4cn(Cc5ccccc5)nn4)C4(CCC(C)(C5CCC(O)(CC)C(C)O5)O4)O3)C(C)CC2C)O1` (stereo not drawn), the IC50 was 0.09 ± 0.02 µM (HMLER CD24low/CD44high; cell proliferation; 72 h).
For `O=Cc1c(O)ccc2ccccc12`, the mRNA level was ~1.5 fold (hCMEC/D3; qPCR, item: KLF2; 50 µM, 4 h; reference: control).
`COc1ccc2cc([C@H](C)C(=O)[O][Pt-2]34([O]C(=O)[C@@H](C)c5ccc6cc(OC)ccc6c5)([NH2+][C@@H]5CCCC[C@H]5[NH2+]3)[O]C(=O)C(=O)[O]4)ccc2c1` gave an IC50 of 15.3 ± 2.5 µM (LO-2 normal liver; cell growth, MTT; 48 h).
`COc1cc(OC)c(-c2coc3c(CC=C(C)C)c(OC)cc(O)c3c2=O)cc1OC` gave an IC50 of > 100 µM (MDA-MB-231, Huh-7, KKU100, NHDF cells; cell viability, MTT; 24 h).

For quick reference, copied from above:
Under “quenching rate constant”, `COC(=O)c1cnc(-c2cnccn2)cc1C(=O)OC.COC(=O)c1cnc(-c2cnccn2)cc1C(=O)OC.F[P-](F)(F)(F)(F)F.[Ag+]` is recorded as 1.5e+11 M⁻¹ s⁻¹ (calf thymus DNA; ethidium bromide displacement).
The IC50 of `O=C(Nc1ccccc1)c1ccccc1-n1c(=O)[nH]c2ccc(F)cc2c1=O` is reported as 83.2 ± 1.32 µM (CHO-K1; cell viability, MTT; 24 h).
The IC50 of `CC(C)c1cccc(C(C)C)c1-n1ccn(-c2c(C(C)C)cccc2C(C)C)c1=[Se].[Cl][Ag]` is reported as 7 µM (PSN1; cell growth or viability, MTT; 72 h).
With `N#Cc1c(-c2ccc(Cl)cc2)cc(-c2cccc3ccccc23)n2c(Cc3ccccc3)nnc12` the IC50 was 0.698 µM (RKOp27; cell growth or viability, MTT; 72 h).
`[NH2][Pt]1([NH2])([Cl])([O]C(=O)C(Cl)Cl)[O]C(=O)C2(CC(=O)C2)C(=O)[O]1` gave an IC50 of 92.5 ± 2.56 µM (SGC-7901/CDDP cisplatin-resistant; cell viability, MTT; 48 h).
